Experimental data pooled from the literature.
Each numbered part is a random draw from the data of one study; scales do not carry over between parts. Changes are numbered by the printed parent chain.

Sample 1 — method: RNA Bind-n-Seq; molecule type: RNA; sample: in vitro; tested at: 365 nM; baseline: no-protein control; reading: higher = stronger binding
Target: RNA binding protein fox-1 homolog 2, RRM domain, GST-SBP tag (RBFOX2, Homo sapiens, UniProt O43251-10, residues 100-194)
Setting: natural RNA segment, single round, ends assumed
All sequences stand within: GGGAGUUCUACAGUCCGACGAUC … UGGAAUUCUCGGGUGCCAA
Target sequence (chain): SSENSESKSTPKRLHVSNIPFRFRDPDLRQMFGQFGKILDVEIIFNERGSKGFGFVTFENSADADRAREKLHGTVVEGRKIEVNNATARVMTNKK
Sequence	RBNS enrichment (R)
GAGGAAGCUGGUGUCCUAAGACACUGAAACCCAGUGCUCAUUGGAGCUGCCAGCCACAGGUUUCUAUUCUGAGUUCUCCAGUCUUGUGAAAGAGGAGAAUUUCCCAGUCA	0.282
UAGCAAAAACCCUAUCGGCCAGAUCAGUGUUACAUUGAUUCUAAGAUUACAGUAUGUCCCAUCAAACAUCUGCUGUAGGUGAGGGAGUGGAUUUGAAGAGGGGUUGAAAG	0.47
GAUGCUUUAAAGGAGACAGGAAUAUAAUUAUUGAGUAUAGAAGCAUCAGAAACUAUUAAAAUUAAGGCUAAGUGGCUAUCGGGGUAAAUAGUGCCAGAUUACUAUUGGUG	1.18
GUUACAUUGGAAUGCUUACUGUCCUACAGAGUGGCAGCAAAUAAAACCUUGCAUUCCAUCAAGCCAAAAUAGCACACUCUGUUAGAGGAGAUACAUGUUUAAGAUAGAAU	0.586
UCUCUCAGCAUCACAGAUGAAACUUAGCUUGAAUGGGUCAAUUCCACCUGUUUUUCUGUGCUCCAGCUGGGCAGUGGGCUCCCCAUGUAGAGCUGAGCCUCUCCACUUCA	0.452
CUACCUUGGUGAUUUGGACCCUGGUUGCUUUGUGUCUAGUUUUCUAGACCCUUCAUCUCUUACUUGAUAGACUUACUAAUAAAAUGUGAAGACUAGACCAAUUGUCAUGC	0.495
UAUCACCCACACAGCACCAUCUCCCCGGCUUGGCUUGGUUAGAAUGGUGAGGGGUUUACAGGGUAAGGGGACAAGACUACACACACUAGCGUGGUAGGACUAGAUUUUUG	0.446
AUGGAUGAAGUUGAAGAGAAAUCUAAAGAUGUUAUAAACUUUACUGCCGAGAAACUUUCAGUAGAUGAAGUCUCACAGUUGGUGAUUUCUCCGCUCUGUGGUGCAAUAUC	0.542
CAGCUUCUAAAGACAUUGUCACCGAGUGUGUGUGACUCAAAGAUCAAGAGUGAGGCUAAACUGCGACCCCAACAUCACUUCCUUCAUGGAAAGGUGUUGGCGCUGAUGUA	0.263
CGGACAGACGCCUUGCCCAGGGUGUGUUUGCUGAGUGUCUUGACUACCGUGACACCACGCAUGGCCAGAGCUAGCGUCCCUACUGCCUCCCGACUCCUCAGUGGAGGAGG	0.403
AUUUGAGGCUCUGAUUGCUGAGCCAGCCUCCUCCCAGGCGGUUUCCCCAGGACUCUCGUAGGAAAUAAAUAGCCCUUUCAAGAUUCCUCAGCUGCCUCACCCCCUGCACA	0.469
CCUGGAUGCACCUGAACUCGUCCCCCUCGUCGAGGGGCAGGAGGGCAUGGACAUGGGCUUCUUCACGGAGAGCCAGGGCGUGUGGGGAUCUUGCCAGAGCUGAGCUGAGC	1.23

Sample 2 — method: RNA Bind-n-Seq; molecule type: RNA; sample: in vitro; tested at: 1 µM; setting: whole 134-nt RNA, ends assumed; added: 150 mM KCl; baseline: input library; reading: higher = stronger binding
Target: Ras GTPase-activating protein-binding protein 1, RRM domain (G3BP1, Homo sapiens, UniProt Q13283)
UniProt Q13283, sequence (whole entry, looked up): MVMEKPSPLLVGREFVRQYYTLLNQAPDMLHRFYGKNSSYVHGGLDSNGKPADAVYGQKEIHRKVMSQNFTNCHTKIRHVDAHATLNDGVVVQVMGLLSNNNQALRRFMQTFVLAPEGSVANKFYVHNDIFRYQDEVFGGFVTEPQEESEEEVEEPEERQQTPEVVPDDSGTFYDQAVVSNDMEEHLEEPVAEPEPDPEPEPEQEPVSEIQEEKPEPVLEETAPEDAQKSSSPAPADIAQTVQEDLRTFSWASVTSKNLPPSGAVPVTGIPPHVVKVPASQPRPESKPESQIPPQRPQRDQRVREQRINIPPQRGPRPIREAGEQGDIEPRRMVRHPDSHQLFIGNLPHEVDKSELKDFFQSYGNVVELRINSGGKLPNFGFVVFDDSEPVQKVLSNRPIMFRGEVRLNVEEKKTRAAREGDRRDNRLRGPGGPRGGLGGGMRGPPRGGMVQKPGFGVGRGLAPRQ
All sequences stand within: GGGAGUUCUACAGUCCGACGAUC … UGGAAUUCUCGGGUGUCAAGG
Sequence	log2 enrichment
UGGCCCUGGUGGCAUGCGGGGAGGAAGAGUUGGCCUCAUGGAUCGUGGUGGUCCCGGUGGAAUGUUCAGAGGUGGCCGUGGUGGAGACAG	0.853
GUCCUGUGCUACACAUCGUAUGUACCGAAUCGGAAAAAAGGAAAAAAGGGAAAAAAGGGAAAGUAUUAUGUUACGCCGUUCGGAUCUGCA	0.115
UCAAGUCCUGUGCUACACAUCGUAUGUACCGAAUCGGAAAAAGGUGGUUUUUGGAAAGUAUUAUGUUACGCCGUUCGGAUCUGCACUUCC	-0.159
GUCCUGUGCUACACAUCGUAUGUACCGAAUCGGGGAGGGGUUUUUGGGGUUUUUGGGGAAAGUAUUAUGUUACGCCGUUCGGAUCUGCAC	0.97
ACCAUGCAGGUGGGCAUCUUUGGGAAAAAGGGCAAGGGGGGGAUAGGGAGGGGGGUAACACUUUGGGAACAGGUGGUCCCAGGUCGUUUC	-0.316
UGGCCCUGGUAGCAUGCGGGGAGGAAGAGGUGGCCUCAUGGAUCGUGGUGGUCCCGGUGGAAUGUUCAGAGGUGGCCGUGGUGGAGACAG	1.07
AAAAUAAGCCUAAGAAAGAAUUAAUUAAAGUUCUGAUUCAGAGGGGAUAUGAUUCGGAUCCUGUGAAGGCCUGGAAAGAAGCCCAGCAAA	-0.213
CUGUGCUACACAUCGUAUGUACCGAAUCGGGGAAAAAAAGGGAAAAAAAGGGGAAAAAAAGGAAAGUAUUAUGUUACGCCGUUCGGAUCU	0.0594
CAAGUCCUGUGCUACACAUCGUAUGUACCGAAUCGGUUUUUGGAAAGGAAAAAGGAAAGUAUUAUGUUACGCCGUUCGGAUCUGCACUUC	-0.199
ACCAUGCAGGUGGGCAUCUUUGGGAAGUGGGGCAAGGGGGGGAUAGGGAGGGGGGUAACACUUUGGGAACAGGUGGCCCCAGGUCGUUUC	0.342
CCUCAAGUCCUGUGCUACACAUCGUAUGUACCGAAUCGGAGGGGAGGGGAGGAAAGUAUUAUGUUACGCCGUUCGGAUCUGCACUUCCAG	-0.214
ACCAUGCAGGUGGGCAUCUUUGGGAAGUUGGGCAAGGGGGGGAUAGGGAGGGGGGUAACACUUUGGGAACAGGUGGUCCCAGGUCGUUUC	-0.473
CCUCAAGUCCUGUGCUACACAUCGUAUGUACCGAAUCGGAAGGGAAGGAAGGAAAGUAUUAUGUUACGCCGUUCGGAUCUGCACUUCCAG	-0.28
CUGUGCUACACAUCGUAUGUACCGAAUCAAACCCCCCCAAAUUUUUUUAAACCCCCCCAAAAAAGUAUUAUGUUACGCCGUUCGGAUCUG	1.27

Sample 3 — method: DHFR PCA, deep sequencing; sample: yeast; added: (+)-ABA 0.39 µM; baseline: wild-type fitted maximum; reading: higher = stronger binding
Target: ABI1, truncated, D143A, DHFR fusion (Arabidopsis thaliana)
Setting: methotrexate growth selection, single substitutions
Starting sequence: PYL1, truncated, DHFR fusion (Arabidopsis thaliana); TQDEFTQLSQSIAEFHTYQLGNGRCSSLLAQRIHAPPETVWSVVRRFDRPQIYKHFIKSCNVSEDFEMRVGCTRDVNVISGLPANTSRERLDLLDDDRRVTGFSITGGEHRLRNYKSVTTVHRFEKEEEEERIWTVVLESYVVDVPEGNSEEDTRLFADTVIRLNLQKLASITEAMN; partner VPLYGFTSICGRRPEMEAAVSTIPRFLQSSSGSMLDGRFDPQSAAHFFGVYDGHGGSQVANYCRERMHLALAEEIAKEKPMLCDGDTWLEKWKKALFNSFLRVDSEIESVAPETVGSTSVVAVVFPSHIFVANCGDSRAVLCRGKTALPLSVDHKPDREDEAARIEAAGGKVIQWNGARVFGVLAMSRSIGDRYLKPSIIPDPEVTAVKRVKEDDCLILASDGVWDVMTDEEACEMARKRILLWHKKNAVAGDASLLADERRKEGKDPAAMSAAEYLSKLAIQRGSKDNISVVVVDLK
Substitution	relative binding score [%]
G108W	-9.68
Q19P	57.6
P146K	-15.8
D96S	-11.6
T73Y	63.9
E129Q	46.6
I79C	47.8
Q2R	38.6
I79G	-0.438
H16F	-12.8
V76T	-7.03
K168D	-6

Sample 4 — method: protein-binding microarray; molecule type: double-stranded DNA, one strand shown; sample: in vitro; tested at: 250 nM; setting: 60-bp whole probe; added: salmon DNA 0.4 mg/ml; baseline: random background probes; reading: higher = stronger binding; all sequences stand within: GCCTAGCAC … GTCTTGATTCGCTTGACGCTGCTG
Target: Interferon regulatory factor 7, full length, phosphomimetic (IRF7, Homo sapiens, UniProt Q92985, residues 1-503, S101K/S471D/S472D/S475D/S476D/S477D/S483D/S484D/S487D)
Target sequence (chain): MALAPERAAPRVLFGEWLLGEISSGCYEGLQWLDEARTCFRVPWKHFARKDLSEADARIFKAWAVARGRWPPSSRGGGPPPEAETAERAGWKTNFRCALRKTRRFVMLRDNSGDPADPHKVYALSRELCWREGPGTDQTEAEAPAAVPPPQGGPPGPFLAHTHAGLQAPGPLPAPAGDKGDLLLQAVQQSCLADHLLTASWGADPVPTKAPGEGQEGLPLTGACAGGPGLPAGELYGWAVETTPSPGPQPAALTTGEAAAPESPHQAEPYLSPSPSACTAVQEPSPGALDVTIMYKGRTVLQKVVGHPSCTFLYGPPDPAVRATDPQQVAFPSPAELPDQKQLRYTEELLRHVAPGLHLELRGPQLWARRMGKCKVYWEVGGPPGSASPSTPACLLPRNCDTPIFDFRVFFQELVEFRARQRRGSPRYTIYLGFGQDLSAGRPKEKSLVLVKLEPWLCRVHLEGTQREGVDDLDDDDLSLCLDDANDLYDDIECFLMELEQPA
Sequence	log fluorescence
TTAGGTTCCGGTTGCGGTTAGTGCTAG	4.22 z-score
TTAGGGCTGGGGACTGGGTTAGTGCTA	-0.936 z-score
GACGACTTCAGTTCCGAGACGTGCTAG	0.323 z-score
GACGGTCTCCTACCGCTGACGTGCTAG	-0.329 z-score
ATGTTTTGAGTTTTCCTTCAGTGCTAG	1.74 z-score
GACGGTCTCCTTATCATGACGTGCTAG	0.144 z-score
TTACATATGTTTTTCATTTTGTGCTAG	1.79 z-score
TTAGAACTGTGGTTTCGATTAGTGCTA	8.89 z-score
GACGGTATCGACATTCGGGACGTGCTA	0.226 z-score
GACGATATCGGGACTGAAGACGTGCTA	-0.0705 z-score
GACGGTATCGATCTCGGGACGTGCTAG	0.69 z-score
TTAGGTCTCCTTATTCTTTAGTGCTAG	0.354 z-score
CCACCACCAACACCAGTCATGTGCTAG	-0.322 z-score
GACGATATCAGTTTCGAGCCGTGCTAG	1.69 z-score

Sample 5 — target: CCND2, cyclin fold, Cln2 fusion (human); method: yeast growth competition, sequencing; sample: yeast; setting: weak parent motif; baseline: not given; reading: higher = stronger binding
Starting sequence: CDC25A docking peptide (human); PPHRRRLLFACSP
Substitution	normalised enrichment score
PPHNRRLLFACSP [R4N]	0.451
PPHRRRLLFACST [P13T]	0.461
PPPRRRLLFACSP [H3P]	-0.118
PPHRRFLLFACSP [R6F]	-0.186
PPRRRRLLFACSP [H3R]	0.238
PPHRRRLLFTCSP [A10T]	0.196
PPHRRRLLFACRP [S12R]	0.265
PPHRRRLLFVCSP [A10V]	-0.13
PPHRRRFLFACSP [L7F]	0.0666
PPHRRRLLFCCSP [A10C]	-0.138
PPERRRLLFACSP [H3E]	-0.14
PPHRRRLLFACSF [P13F]	-0.0466
PPHQRRLLFACSP [R4Q]	0.252
CPHRRRLLFACSP [P1C]	-0.188
PPHRRRLLFECSP [A10E]	0.0049
